Published values gathered from unrelated publications.
A part holds a random share of what one study measured. Several values in a cell are separate wells, animals, samples, runs or records.
Chain of UniProt P00519 (whole entry, unmodified, looked up): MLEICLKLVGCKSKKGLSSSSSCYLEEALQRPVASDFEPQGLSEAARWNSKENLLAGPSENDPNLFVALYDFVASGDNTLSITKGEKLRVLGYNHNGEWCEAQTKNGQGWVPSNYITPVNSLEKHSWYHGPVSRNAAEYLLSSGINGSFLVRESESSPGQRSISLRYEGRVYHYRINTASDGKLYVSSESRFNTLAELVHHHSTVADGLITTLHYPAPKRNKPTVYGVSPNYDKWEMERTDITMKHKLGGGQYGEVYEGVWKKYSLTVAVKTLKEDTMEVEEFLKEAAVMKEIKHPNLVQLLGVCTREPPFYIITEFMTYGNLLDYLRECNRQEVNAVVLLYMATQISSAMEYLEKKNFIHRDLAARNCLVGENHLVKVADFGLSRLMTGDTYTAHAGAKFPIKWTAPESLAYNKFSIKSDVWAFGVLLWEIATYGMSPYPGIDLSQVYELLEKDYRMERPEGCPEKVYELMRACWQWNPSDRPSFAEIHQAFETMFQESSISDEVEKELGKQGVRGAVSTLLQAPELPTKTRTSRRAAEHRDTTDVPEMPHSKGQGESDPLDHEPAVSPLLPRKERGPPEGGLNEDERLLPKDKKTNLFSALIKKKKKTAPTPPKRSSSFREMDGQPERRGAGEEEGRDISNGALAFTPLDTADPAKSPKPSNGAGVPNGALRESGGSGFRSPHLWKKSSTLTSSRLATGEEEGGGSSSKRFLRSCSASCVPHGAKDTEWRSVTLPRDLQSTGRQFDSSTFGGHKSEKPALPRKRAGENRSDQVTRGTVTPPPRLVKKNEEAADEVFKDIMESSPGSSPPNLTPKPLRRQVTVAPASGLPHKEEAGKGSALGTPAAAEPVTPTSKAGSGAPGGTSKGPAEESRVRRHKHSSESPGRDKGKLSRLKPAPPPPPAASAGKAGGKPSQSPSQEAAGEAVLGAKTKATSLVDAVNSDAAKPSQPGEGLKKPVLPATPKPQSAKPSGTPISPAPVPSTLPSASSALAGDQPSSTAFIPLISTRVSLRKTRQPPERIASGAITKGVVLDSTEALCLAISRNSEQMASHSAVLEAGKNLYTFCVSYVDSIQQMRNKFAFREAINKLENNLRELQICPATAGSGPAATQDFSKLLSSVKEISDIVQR
Chain of UniProt P17948 (whole entry, looked up): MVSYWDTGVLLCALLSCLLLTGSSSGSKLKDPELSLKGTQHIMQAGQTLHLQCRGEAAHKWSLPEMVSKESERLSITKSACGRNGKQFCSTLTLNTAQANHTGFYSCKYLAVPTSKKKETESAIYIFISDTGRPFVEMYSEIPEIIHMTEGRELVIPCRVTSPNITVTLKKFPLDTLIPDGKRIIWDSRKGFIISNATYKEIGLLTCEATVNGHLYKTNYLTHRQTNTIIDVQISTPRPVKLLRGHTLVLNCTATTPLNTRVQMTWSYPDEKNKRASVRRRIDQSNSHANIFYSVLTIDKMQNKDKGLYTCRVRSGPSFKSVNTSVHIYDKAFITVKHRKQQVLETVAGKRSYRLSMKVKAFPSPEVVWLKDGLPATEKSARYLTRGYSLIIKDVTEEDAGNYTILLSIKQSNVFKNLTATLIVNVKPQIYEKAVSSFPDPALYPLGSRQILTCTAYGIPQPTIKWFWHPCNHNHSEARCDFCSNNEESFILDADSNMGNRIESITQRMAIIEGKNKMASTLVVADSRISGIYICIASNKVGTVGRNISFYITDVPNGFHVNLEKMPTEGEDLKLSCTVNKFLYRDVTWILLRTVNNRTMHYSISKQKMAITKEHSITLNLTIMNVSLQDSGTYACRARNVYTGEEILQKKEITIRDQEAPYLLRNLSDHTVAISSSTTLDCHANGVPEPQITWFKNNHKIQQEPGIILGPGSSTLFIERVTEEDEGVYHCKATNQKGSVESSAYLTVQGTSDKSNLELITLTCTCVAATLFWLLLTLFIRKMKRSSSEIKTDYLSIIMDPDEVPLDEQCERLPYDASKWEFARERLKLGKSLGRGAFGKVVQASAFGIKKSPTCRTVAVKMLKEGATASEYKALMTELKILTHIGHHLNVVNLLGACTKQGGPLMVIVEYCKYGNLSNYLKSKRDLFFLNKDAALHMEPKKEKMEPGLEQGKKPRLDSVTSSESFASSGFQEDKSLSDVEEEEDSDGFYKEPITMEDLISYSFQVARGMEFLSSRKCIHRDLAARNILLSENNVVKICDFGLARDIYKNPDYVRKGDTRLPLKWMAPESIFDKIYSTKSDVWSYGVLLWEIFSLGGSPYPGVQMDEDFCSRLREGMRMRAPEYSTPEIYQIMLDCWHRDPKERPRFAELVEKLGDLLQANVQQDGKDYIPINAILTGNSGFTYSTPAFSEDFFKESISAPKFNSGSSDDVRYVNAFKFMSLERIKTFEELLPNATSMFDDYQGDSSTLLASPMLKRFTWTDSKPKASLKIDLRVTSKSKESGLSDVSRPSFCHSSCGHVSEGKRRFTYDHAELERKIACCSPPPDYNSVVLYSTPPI
Chain of UniProt P35626 (whole entry, looked up): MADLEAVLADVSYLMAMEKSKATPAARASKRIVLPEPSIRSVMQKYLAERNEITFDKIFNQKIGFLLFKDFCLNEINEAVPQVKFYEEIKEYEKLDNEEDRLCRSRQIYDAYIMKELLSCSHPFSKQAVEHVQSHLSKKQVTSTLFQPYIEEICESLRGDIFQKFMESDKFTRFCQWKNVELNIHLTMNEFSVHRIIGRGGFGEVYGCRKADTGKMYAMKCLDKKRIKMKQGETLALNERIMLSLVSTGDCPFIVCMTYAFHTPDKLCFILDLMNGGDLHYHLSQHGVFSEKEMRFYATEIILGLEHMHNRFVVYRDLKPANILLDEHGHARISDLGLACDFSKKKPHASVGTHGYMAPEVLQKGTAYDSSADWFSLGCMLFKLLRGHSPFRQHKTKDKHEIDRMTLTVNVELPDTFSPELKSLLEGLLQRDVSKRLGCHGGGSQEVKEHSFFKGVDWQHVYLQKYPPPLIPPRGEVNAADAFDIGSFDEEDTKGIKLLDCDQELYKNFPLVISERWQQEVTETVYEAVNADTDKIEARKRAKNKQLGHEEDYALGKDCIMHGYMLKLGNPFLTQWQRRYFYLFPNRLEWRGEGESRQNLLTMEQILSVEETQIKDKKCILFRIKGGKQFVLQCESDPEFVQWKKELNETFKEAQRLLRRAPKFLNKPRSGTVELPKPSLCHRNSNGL
Chain of UniProt Q16659 (whole entry, looked up): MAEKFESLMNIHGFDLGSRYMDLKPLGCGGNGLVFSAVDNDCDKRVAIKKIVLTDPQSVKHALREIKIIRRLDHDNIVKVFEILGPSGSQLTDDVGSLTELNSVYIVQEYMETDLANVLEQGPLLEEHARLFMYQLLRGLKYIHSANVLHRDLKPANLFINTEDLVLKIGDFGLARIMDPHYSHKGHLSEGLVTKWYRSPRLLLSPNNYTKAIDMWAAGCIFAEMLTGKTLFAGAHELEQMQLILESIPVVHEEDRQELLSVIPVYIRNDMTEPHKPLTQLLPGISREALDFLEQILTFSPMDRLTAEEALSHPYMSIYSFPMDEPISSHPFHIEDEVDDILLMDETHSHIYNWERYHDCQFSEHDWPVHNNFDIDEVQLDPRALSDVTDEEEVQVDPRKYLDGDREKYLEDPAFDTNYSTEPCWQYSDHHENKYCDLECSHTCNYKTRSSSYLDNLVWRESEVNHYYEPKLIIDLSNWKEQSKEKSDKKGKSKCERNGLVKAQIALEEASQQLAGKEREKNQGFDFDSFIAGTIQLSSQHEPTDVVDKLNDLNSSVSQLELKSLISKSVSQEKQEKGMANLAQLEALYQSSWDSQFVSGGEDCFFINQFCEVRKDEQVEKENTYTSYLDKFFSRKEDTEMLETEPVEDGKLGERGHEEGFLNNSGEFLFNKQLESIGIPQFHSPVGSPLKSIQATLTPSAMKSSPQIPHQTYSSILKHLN
Chain of UniProt Q9BWU1 (whole entry, looked up): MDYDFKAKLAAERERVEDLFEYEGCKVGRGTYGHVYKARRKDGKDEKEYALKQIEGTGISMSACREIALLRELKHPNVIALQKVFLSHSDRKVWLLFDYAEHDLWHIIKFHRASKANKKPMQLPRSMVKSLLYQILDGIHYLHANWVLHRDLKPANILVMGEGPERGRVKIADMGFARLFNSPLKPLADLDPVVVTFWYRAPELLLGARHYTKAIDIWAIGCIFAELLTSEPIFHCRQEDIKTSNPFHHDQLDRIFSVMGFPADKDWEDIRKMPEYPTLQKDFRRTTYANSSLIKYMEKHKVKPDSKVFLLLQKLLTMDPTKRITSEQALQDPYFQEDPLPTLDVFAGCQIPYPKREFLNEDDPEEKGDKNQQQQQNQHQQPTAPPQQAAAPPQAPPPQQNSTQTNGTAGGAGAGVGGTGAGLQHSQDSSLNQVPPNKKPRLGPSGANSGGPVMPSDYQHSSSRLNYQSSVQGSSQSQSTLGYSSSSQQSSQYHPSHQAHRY

Study 1
SMILES: CC(C)C[C@@H]1NC(=O)[C@@H](N(C)C(=O)[C@H](CC2CCC2)NC(=O)[C@@H]2C[C@@H](F)CN2C(=O)C2(C(F)(F)F)CC(F)(F)C2)CCCCNC(=O)C2(CC2)NC(=O)[C@H](Cc2cc(Cl)ccc2Cl)N(C)C1=O
Time: 6 days
Relative to: DMSO
Measurement: relative cell count
Jurkat DOX-inducible E2F1 WT, no doxycycline; 2 µM: 0.18 and 0.254 and 0.193
NCI-H82 DOX-inducible E2F1 WT, no doxycycline; 20 nM: 0.962 and 1 and 1.13
NCI-H82 DOX-inducible E2F1 WT, no doxycycline; 600 nM: 0.958 and 0.659 and 0.819
Jurkat DOX-inducible E2F1 WT, no doxycycline; 60 nM: 0.861 and 0.617 and 0.773
NCI-H82 DOX-inducible E2F1 WT, with doxycycline; 60 nM: 0.925 and 0.982 and 0.904
NCI-H82 DOX-inducible E2F1 WT, no doxycycline; 2 µM: 0.537 and 0.546 and 0.407
NCI-H82 DOX-inducible E2F1 WT, with doxycycline; 200 nM: 0.794 and 0.56 and 0.462

Study 2
Target: Serine/threonine-protein kinase PAK 2 (PAK2, Homo sapiens, UniProt Q13177)
Chain of UniProt Q13177 (whole entry, looked up): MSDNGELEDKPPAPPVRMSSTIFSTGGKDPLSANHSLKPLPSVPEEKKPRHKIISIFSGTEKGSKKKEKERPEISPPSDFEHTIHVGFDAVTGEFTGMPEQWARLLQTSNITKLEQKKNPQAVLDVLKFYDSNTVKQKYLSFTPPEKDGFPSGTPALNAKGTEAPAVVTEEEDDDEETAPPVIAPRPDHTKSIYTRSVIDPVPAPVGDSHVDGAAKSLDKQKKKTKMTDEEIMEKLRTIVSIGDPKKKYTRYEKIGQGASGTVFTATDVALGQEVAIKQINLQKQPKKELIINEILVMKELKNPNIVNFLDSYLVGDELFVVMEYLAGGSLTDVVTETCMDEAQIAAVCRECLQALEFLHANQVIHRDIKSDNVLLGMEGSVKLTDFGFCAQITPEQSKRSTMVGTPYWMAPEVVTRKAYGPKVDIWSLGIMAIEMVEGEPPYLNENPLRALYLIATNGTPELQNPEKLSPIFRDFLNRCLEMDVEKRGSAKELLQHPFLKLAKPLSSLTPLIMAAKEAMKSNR
Observed: enzyme activity
Mode: inhibitor
Tested at: 0.5 µM
Relative to: control
Measurement: remaining activity
Cc1cncc2cccc(S(=O)(=O)N3CCCN(C(=O)CN)C[C@@H]3C)c12: 99.7%
Oc1ccc(Nc2nc(-c3ccc(Cl)cc3)cs2)cc1: 87%
O=C1NC(=O)C(c2c[nH]c3ccccc23)=C1c1c[nH]c2ccccc12: 97%
Cc1ccc(NC2=CC(=O)c3sc(C)nc3C2=O)cc1: 104%
CC[n+]1c(/C=C/N(C)c2ccccc2)n(-c2ccccc2)c2ccc(-c3nc4ccccc4s3)cc21: 97.3%
O=S(=O)(NCCNC/C=C/c1ccc(Br)cc1)c1cccc2cnccc12: 78.6%
CC(=O)c1ccc(N2CCOCC2)cc1O: 98.8%
CC(C)(C)n1nc(Cc2cccc3ccccc23)c2c(N)ncnc21: 94.7%
Nc1ncnc2c1cnn2-c1ccccc1: 98.1%
Cc1cc(Nc2nc(-c3ccccc3)nc3ccccc23)n[nH]1: 91.8%
O=C1Cc2c([nH]c3ccc([N+](=O)[O-])cc23)-c2ccccc2N1: 41%
NC(=O)c1ccc(N(C(N)=O)c2c(F)cccc2F)nc1-c1ccc(F)cc1F: 101%
CC#CC(=O)Nc1cc2c(Nc3ccc(F)c(Cl)c3)ncnc2cn1: 105%
CCc1[nH]c(-c2ccc(OC)cc2)nc1-c1ccncc1: 90.7%
Nc1nccc(-c2c(-c3ccc(F)cc3)ncn2C2CCNCC2)n1: 76.9%
COc1ccc(S(=O)(=O)N(CCO)c2ccccc2CN(C)CC=Cc2ccc(Cl)cc2)cc1: 101%
N#CC(=C(N)Sc1ccc(N)cc1)c1ccccc1C(F)(F)F: 98%
CSc1nc(-c2ccnc(N[C@@H](C)c3ccccc3)c2)c(-c2ccc(F)cc2)[nH]1 (racemic): 104%
Fc1ccc(-c2nc3n(c2-c2ccncc2)CCS3)cc1: 84.7%

Study 3
SMILES: O=C(N1CCS(=O)(=O)CC1)N1C[C@H](c2ccc(OC(F)(F)F)cc2)C[C@H](c2nc(C3CC3)no2)C1
Tested at: 1 µM
Measurement: remaining binding
NEK1 (Homo sapiens, UniProt Q96PY6); cell-free assay, competition with immobilised ligand: 100%
FLT1 (Homo sapiens, UniProt P17948); cell-free assay, competition with immobilised ligand: 100%
CDK19 (Homo sapiens, UniProt Q9BWU1); competition binding: 100%
Tyrosine-protein kinase ABL1, phosphorylated (ABL1, Homo sapiens, UniProt P00519); cell-free assay, competition with immobilised ligand: 92%
TEC (Homo sapiens, UniProt P42680); binding, competition with immobilised ligand: 100%
Tyrosine-protein kinase ABL1, phosphorylated (ABL1, Homo sapiens, UniProt P00519, E255K); binding, competition with immobilised ligand: 100%
PKN1 (Homo sapiens, UniProt Q16512); cell-free assay, competition with immobilised ligand: 100%
FLT3 (Homo sapiens, UniProt P36888, R834Q); cell-free assay, competition with immobilised ligand: 100%
ALK (Homo sapiens, UniProt Q9UM73, C1156Y); cell-free assay, competition with immobilised ligand: 79%
IKBKB (Homo sapiens, UniProt O14920); cell-free assay, competition with immobilised ligand: 77%
CAMKK1 (Homo sapiens, UniProt Q8N5S9); cell-free assay, competition with immobilised ligand: 100%
GRK3 (Homo sapiens, UniProt P35626); cell-free assay, competition with immobilised ligand: 100%
Ribosomal protein S6 kinase alpha-2, N-terminal kinase domain (RPS6KA2, Homo sapiens, UniProt Q15349); cell-free assay, competition with immobilised ligand: 100%
CSNK1D (Homo sapiens, UniProt P48730); cell-free assay, competition with immobilised ligand: 100%
LIM domain kinase 2 (LIMK2, Homo sapiens, UniProt P53671); cell-free assay, competition with immobilised ligand: 95%
NEK5 (Homo sapiens, UniProt Q6P3R8); cell-free assay, competition with immobilised ligand: 98%
MAPK6 (Homo sapiens, UniProt Q16659); cell-free assay, competition with immobilised ligand: 100%
FGFR1 (Homo sapiens, UniProt P11362); cell-free assay, competition with immobilised ligand: 100%

Study 4
Species: mouse
Matrix: microsomes or S9
Tested at: 2 µM
Time: 0.5 h
Measurement: remaining compound
CCOC(=O)C(OC(C)(C)C)c1c(C)nc2c(Br)c(C)nn2c1-c1ccc(Cl)cc1 (stereo not drawn): 16.9%
Cc1cc(S(=O)(=O)Nc2ccc(=O)n(C)n2)sc1C: 82.3%
COc1ccccc1N/C(N)=N/Cc1ccccc1OCCN(C)C: 67.6%
CCOC(=O)CNC(=O)N1Cc2c(sc3c2CCCC3)-n2cccc2C1C(C)C (stereo not drawn): < 1%
CCc1c(C(=O)NNc2oc(C(C)C)nc2C#N)cnn1C(C)(C)C: 0.623%
O=C(c1c(OCC2CC2)cc(=O)n2c1CCOCC2)N1CCN(C2CCCCC2)CC1: 48.3%
O=c1[nH]c2c(S(=O)(=O)c3ccc(Br)cc3)nnn2c2ccsc12: 61.8%
CC1CC(N(C(=O)Nc2ccc(Cl)c(Cl)c2)c2ccccc2)c2ccccc2N1C(=O)Nc1ccc(Cl)c(Cl)c1 (stereo not drawn): 0%
Clc1cc2nc(-c3cn[nH]c3)[nH]c2cc1Cl: 0.729%
O=C(c1ccc(Nc2cc(-n3cccc3)ncn2)cc1)N1CCN(Cc2ccc3c(c2)OCO3)CC1: 23.6%
Cc1cc(-c2ccccc2)nc2c(Br)c(=O)[nH]n12: 37.4%
COC(=O)c1ccc(C)c(NC(=O)CN(C)Cc2ccc(Cl)s2)c1: 2.2%
COc1cc(OC)cc(-c2nnc(SCC(=O)NC3CC4CCC3C4)[nH]2)c1 (stereo not drawn): 1.98%
Clc1ccc(-c2nc3ncccn3c2Nc2ccccc2)cc1: 17.9%
CCC(C)NCc1ccccc1-c1ccc(S(C)(=O)=O)cc1 (stereo not drawn): 88.5%
COc1ccccc1CNC(=O)c1c(OC)cc(=O)n2c1CCCC2: 16.2%
Cc1c[nH]c(CN(C)C(=O)c2cc(CC(C)C)no2)n1: 0.157%
CC(=O)c1ccc2[nH]c3c(C(C)=O)cc(Cl)cc3c2c1: 87.5%
Cc1ccc(Nc2nc3ccccc3n3nnnc23)cc1: 3.93%
Fc1ccc2onc(-c3cnc4c(c3)COc3ccccc3-4)c2c1: 11.5%
Cn1c(=O)c2c(-c3ccccc3Br)n(-c3ccc4c(c3)nc(CO)n4C)cc2n(C)c1=O: 23.3%
Cc1nc2c(c(-c3ccc(Cl)cc3)c1CO)CN(C1CCCCC1)C2=O: 47.8%

For quick reference, copied from above (study 4):
Cc1c[nH]c(CN(C)C(=O)c2cc(CC(C)C)no2)n1: 0.157%
CC1CC(N(C(=O)Nc2ccc(Cl)c(Cl)c2)c2ccccc2)c2ccccc2N1C(=O)Nc1ccc(Cl)c(Cl)c1 (stereo not drawn): 0%
Fc1ccc2onc(-c3cnc4c(c3)COc3ccccc3-4)c2c1: 11.5%
COc1ccccc1N/C(N)=N/Cc1ccccc1OCCN(C)C: 67.6%
Clc1cc2nc(-c3cn[nH]c3)[nH]c2cc1Cl: 0.729%
Cc1cc(S(=O)(=O)Nc2ccc(=O)n(C)n2)sc1C: 82.3%
Clc1ccc(-c2nc3ncccn3c2Nc2ccccc2)cc1: 17.9%
COc1cc(OC)cc(-c2nnc(SCC(=O)NC3CC4CCC3C4)[nH]2)c1 (stereo not drawn): 1.98%
O=C(c1ccc(Nc2cc(-n3cccc3)ncn2)cc1)N1CCN(Cc2ccc3c(c2)OCO3)CC1: 23.6%
